Experimental data of several laboratories.
Each line is one published result; not all experiments were run side by side.

Under “patients with any TRAE”, CC(=O)c1c(C)c2cnc(Nc3ccc(C4CCN(CCS(C)(=O)=O)CC4)cn3)nc2n(C2CCCC2)c1=O is recorded as 100% (HR+/HER2- advanced breast cancer patients; oral, 100 mg).
For C=CCNc1c(O)cc2c(O)c1C[C@@H](C)C[C@H](OC)[C@H](O)[C@@H](C)/C=C(\C)[C@H](OC(N)=O)[C@@H](OC)/C=C\C=C(/C)C(=O)N2, “patients with sinus bradycardia” read 0% (unresectable or metastatic STS, GIST, other; intravenous, 150 mg/m^2).
For COc1c(C)cnc(Cn2cc(C#CCCOP(=O)(O)O)c3c(Cl)nc(N)nc32)c1C, “patients with abnormal dreams” read 17% (patients, advanced solid tumours; dose not given, all doses).
COc1ccc(-c2c(-c3ccc(C#N)c(F)c3)nc(N3CCC(N)CC3)n(C)c2=O)cc1F: “patients with TRAE any grade” 6% (item: decreased appetite; neuroendocrine neoplasm patients; oral, 60 mg, dose expansion).
Under “patients with ADR”, C=CC(=O)N1CC[C@H](n2nc(C#Cc3cc(OC)cc(OC)c3)c3c(N)ncnc32)C1 is recorded as 13.6% (item: blood creatinine increased; hyperphosphataemia patients; oral, once daily, any grade, sevelamer users).
Under “patients who died”, CC(C)C[C@H](NC(=O)[C@@H](Cc1c[nH]c2ccccc12)NC(=O)[C@H](Cc1ccc(O)cc1)NC(=O)[C@H](CO)NC(=O)[C@H](Cc1c[nH]c2ccccc12)NC(=O)[C@H](Cc1c[nH]cn1)NC(=O)[C@@H]1CCC(=O)N1)C(=O)N[C@@H](CCCNC(=N)N)C(=O)N1CCC[C@H]1C(=O)NCC(N)=O is recorded as 0% (Chinese CPP children, boys; intramuscular, 22.5 mg, 12 months, day 1, month 6).
Under “patients with serious TEAE”, N[C@@H]1c2ccccc2OC12CCN(c1cnc3c(N4CCCc5ncccc54)n[nH]c3n1)CC2 is recorded as 20% (advanced solid tumour patients; oral, 60 mg once daily).
CCNCCCNC/C=C\CNCCCNCC — result for “patients with drug-related TEAEs”: 19.6% (advanced refractory solid tumour patients; intravenous, dose not given, Vascular disorders).
For COc1cc2c(Oc3ccc4[nH]c(C)cc4c3F)ccnc2cc1OCC1(N)CC1, “patients with grade 3 ALT elevation” read 0% (paediatric refractory sarcoma patients; 8 mg/kg).
Nc1nc2cc(-c3ccc4ncc(C(=O)N5CCOCC5)n4c3)ccc2o1 — result for “patients with adverse events”: 4% (item: Fatigue, any cause, grade ≥3; patients with advanced solid tumours; dose not given).
Under “patients with adverse event”, CN1CC[C@@H](c2c(O)cc(O)c3c(=O)cc(-c4ccc(C(F)(F)F)cc4Cl)oc23)[C@@H]1CO is recorded as 0% (item: respiratory failure; AML; oral, 100 mg, grade 3 to 4, intermittent dosing).
For COc1nnc2ccc(N3CCC(c4ccc(OCCN5CCN(C)C(=O)[C@H]5C)cc4)CC3)nn12, “patients with adverse event” read 26.5% (item: nausea; patients with solid tumours or lymphoma; oral, dose not given, all grades, treatment-emergent).
C[C@@H]1OC(=O)NN=C1c1ccc(-c2ccc(F)cc2)c(C(F)(F)F)c1: “patients with blood ALP increased” 0% (patients, phase I trial; oral, 5 mg once daily, worst grade 1).
For CO[C@H]1C[C@@H]2CC[C@@H](C)[C@@](O)(O2)C(=O)C(=O)N2CCCC[C@H]2C(=O)O[C@H]([C@H](C)C[C@@H]2CC[C@@H](OC(=O)NCCOCCOCCOCCOCCOCCOCCOCCOCCC(=O)N3CCc4cc(Cn5nc(-c6ccc7oc(N)nc7c6)c6c(N)ncnc65)ccc4C3)[C@H](OC)C2)C[C@@H](O)[C@H](C)/C=C(\C)[C@@H](O)[C@@H](OC)C(=O)[C@H](C)C[C@H](C)/C=C/C=C/C=C/1C, “patients with AE” read 11% (item: grade ≥3 mucositis TEAE (bundled term); patients with advanced solid tumours; intravenous, dose not given, all patients, weekly).
Under “patients with any bleeding”, Cn1cc(-c2nc(N[C@@H]3CCCC[C@@H]3N)c(F)c3c2C(=O)NC3)cn1 is recorded as 70% (relapsed/refractory AML patients; oral, dose not given, phase Ib trial, all doses).
For Cc1nc(-c2cnc(NC(C)C)n(C)c2=O)ccc1Oc1ccnc(-c2cnn(C)c2)c1, “patients with serious treatment-related TEAE” read 6% (patients with TGCT; oral, dose not given, NCI-CTCAE v4.03).
O=C1Nc2cc3[nH]nc(-c4ccncc4)c3cc2CN1Cc1ccccc1: “patients with ≥1 TEAE” 100% (CTCAE v4.03; advanced solid tumour patients; intravenous, 4.8 mg/kg, schedules 1/2).
